Assay results gathered from unrelated publications.
Substitutions count along the parent as printed.
MFN2 near-full-length del605-647: MFN2 near-full-length del605-647, (SAA)5 linker replacing 605-647 (Homo sapiens)
P1: CVP-214; VVPGLKPFV
Chain of UniProt Q9BRJ7 (whole entry, looked up): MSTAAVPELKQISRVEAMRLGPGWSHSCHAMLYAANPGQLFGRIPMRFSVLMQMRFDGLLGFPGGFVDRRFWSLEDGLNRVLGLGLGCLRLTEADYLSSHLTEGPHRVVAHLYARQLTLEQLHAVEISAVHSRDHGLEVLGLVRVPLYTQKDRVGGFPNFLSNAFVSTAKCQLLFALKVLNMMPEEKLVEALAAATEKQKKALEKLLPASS
Chain of UniProt Q0JQF7 (whole entry, looked up): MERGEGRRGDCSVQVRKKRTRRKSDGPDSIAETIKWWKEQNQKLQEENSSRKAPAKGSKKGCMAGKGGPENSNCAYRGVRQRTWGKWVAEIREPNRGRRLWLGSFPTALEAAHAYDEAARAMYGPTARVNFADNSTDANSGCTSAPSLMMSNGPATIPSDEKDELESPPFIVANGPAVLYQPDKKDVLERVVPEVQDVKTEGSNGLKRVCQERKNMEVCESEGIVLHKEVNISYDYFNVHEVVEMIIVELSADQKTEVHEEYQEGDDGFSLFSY
Chain of UniProt P15976 (whole entry, looked up): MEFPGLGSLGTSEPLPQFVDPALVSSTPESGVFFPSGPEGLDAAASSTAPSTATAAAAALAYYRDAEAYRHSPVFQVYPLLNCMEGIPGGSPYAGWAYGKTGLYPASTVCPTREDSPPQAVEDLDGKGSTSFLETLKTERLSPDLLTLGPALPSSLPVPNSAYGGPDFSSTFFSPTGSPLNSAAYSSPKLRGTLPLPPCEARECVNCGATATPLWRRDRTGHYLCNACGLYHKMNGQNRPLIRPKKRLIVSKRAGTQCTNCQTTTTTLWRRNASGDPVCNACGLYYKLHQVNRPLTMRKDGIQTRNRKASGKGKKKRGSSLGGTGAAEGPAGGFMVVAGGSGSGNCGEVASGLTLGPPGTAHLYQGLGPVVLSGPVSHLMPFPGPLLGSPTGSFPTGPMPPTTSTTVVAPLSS

Substance	tested on	assay	system	setting	scale	quantity	value
CCAGGCAGATAAGGAACAAC (ssDNA)	GATA1 200-311 (Homo sapiens, UniProt P15976)	fluorescence anisotropy	single-stranded DNA	–	–	Kd	< 11 µM
insulin icodec	–	–	human severe hepatic impairment (Child-Pugh C), serum	subcutaneous, 1.5 U/kg single dose	reference: severe impairment over normal function	AUC(0-inf) ratio	0.97
P1 L5A	MFN2 near-full-length del605-647	field-effect biosensing	–	–	–	Kd	804 µM
GCCGACGCCGACGCCGACGCCGACGCCGAC (dsDNA)	DREB2A 1-274 (Oryza sativa, UniProt Q0JQF7)	EMSA	double-stranded DNA, one strand shown	–	–	binding	binds
UGGUACUGGGAGGGAUGAGGGUGAAGAAGGGGAGAGGGUUGG (ssRNA)	NUDT16L1 full length assumed (Homo sapiens, UniProt Q9BRJ7)	fluorescence polarization	RNA	–	–	Kd	0.35 µM
P1 F8A	MFN2 near-full-length del605-647	field-effect biosensing	–	–	–	Kd	14000 µM
